Measurements from different studies.
Compare with care: the assays were run in different laboratories.
FGR: Tyrosine-protein kinase Fgr (FGR, Homo sapiens, UniProt P09769)
Chain of UniProt P09769 (whole entry, looked up): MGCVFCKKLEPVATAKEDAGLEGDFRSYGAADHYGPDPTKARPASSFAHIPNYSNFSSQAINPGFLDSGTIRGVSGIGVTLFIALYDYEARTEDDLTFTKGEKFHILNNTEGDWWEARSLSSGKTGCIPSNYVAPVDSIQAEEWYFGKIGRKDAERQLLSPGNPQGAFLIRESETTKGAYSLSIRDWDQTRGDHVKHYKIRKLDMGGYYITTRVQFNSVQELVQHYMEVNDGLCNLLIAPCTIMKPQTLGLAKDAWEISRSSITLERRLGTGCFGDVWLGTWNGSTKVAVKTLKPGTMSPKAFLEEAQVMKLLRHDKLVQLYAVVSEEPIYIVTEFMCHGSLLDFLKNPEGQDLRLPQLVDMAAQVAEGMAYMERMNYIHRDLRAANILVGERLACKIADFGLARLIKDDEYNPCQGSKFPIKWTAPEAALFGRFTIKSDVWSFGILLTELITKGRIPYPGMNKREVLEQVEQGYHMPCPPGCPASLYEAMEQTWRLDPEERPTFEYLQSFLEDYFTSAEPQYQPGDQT
Chain of UniProt O33336 (whole entry, looked up): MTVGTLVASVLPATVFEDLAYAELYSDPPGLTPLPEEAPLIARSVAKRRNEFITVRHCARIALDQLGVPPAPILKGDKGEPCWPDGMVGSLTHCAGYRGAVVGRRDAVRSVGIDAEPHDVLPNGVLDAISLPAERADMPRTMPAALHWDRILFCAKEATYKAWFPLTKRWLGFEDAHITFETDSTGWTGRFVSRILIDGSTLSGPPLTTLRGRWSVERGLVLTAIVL
Chain of UniProt P42336 (whole entry, unmodified, looked up): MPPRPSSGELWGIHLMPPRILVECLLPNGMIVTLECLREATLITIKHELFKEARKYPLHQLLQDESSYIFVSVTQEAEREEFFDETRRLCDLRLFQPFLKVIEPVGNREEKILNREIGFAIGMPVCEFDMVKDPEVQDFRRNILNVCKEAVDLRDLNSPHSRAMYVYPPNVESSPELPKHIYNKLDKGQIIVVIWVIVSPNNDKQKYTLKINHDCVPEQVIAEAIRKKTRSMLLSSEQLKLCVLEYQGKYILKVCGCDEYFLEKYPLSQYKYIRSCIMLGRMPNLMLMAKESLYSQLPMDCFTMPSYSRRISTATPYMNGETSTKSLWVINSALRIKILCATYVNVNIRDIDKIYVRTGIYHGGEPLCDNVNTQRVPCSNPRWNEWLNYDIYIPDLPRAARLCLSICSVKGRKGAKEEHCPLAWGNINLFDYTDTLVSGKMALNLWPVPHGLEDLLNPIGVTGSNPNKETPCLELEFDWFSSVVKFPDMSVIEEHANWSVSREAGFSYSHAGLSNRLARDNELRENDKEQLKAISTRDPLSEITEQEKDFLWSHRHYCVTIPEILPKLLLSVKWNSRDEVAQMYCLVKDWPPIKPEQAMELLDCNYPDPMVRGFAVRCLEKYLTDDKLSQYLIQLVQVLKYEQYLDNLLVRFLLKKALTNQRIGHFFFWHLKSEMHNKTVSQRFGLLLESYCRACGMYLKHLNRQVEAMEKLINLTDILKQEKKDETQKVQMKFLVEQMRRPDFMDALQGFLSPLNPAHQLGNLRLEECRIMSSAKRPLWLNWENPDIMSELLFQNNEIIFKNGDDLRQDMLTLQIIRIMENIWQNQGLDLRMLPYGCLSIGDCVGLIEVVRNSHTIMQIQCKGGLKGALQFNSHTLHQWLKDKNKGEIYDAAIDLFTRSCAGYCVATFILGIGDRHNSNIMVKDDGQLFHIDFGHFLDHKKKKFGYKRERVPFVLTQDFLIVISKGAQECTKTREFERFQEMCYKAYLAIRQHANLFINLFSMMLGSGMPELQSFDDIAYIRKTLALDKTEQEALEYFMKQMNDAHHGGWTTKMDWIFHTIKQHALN
Chain of UniProt Q8TBX8 (whole entry, looked up): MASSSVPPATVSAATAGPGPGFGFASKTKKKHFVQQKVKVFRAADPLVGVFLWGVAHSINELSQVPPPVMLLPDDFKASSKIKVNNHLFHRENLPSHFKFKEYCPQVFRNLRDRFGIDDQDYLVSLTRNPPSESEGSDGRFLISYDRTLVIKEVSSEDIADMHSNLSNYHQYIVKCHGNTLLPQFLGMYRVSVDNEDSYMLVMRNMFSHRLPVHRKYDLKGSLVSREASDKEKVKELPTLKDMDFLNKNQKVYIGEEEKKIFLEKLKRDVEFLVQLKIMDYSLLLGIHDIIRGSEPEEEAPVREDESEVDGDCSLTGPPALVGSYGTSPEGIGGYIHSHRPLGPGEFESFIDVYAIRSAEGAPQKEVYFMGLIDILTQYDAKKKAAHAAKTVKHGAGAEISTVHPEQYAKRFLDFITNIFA

SMILES = N.N.[Cl][Pt][Cl]; target or system = DOHH-2; assay = cell growth or viability, ATP luminescence; conditions = 72 h; measurement = IC50; result = 570 nM
SMILES = Cc1ccc(NC(=O)c2ccc(CN3CCN(C)CC3)cc2)cc1Nc1nccc(-c2cccnc2)n1; target or system = K562; assay = cell growth or viability, MTT; conditions = 20 µM; measurement = viability; result = 23.9%
SMILES = CCOC(=O)C1=C(N)N(c2ccc(C(=O)OCC)cc2)C(O)=C(C#N)C12C(=O)Nc1ccccc12 (stereo not drawn); target or system = HepG2; assay = cell growth or viability, MTT; conditions = 6.25 µM, 24 h; measurement = viability; result = 58.6%
SMILES = CN(C)c1ccc(C(=O)NCCCCCCC(=O)NO)cc1; target or system = OCI-Ly1; assay = cell growth or viability, ATP luminescence; conditions = 1 µM, 5 days; measurement = viability; result = 30.3%
SMILES = [2H]c1c([2H])c([C@]2([2H])CCCN2C(=O)C(C)(C)Oc2ccc3cn[nH]c3c2)c([2H])c([2H])c1C([2H])([2H])[2H]; target or system = PIP4K2C (Homo sapiens, UniProt Q8TBX8); assay = binding, competition with immobilised ligand; conditions = 1 µM; measurement = remaining binding; result = 98%
SMILES = Cc1cc(=O)oc2cc(OCCCC[Se]C#N)ccc12; target or system = SW1573; assay = cell growth or viability, SRB; measurement = GI50; result = 2.6 µM
SMILES = COc1ccc(Nc2nn3c(-c4ccccc4)ccnc3c2C(=O)Nc2ccccc2)cc1; target or system = Caco-2; assay = cell growth or viability, MTT; conditions = 50 µg/mL, 48 h, serum-free; measurement = viability; result = 34.5%
SMILES = Nc1ncc(-c2nc(N3CCOCC3)nc(N3CCOCC3)n2)c(C(F)F)n1; target or system = PIK3CA (Homo sapiens, UniProt P42336, H1047Y); assay = binding, competition with immobilised ligand; conditions = 10 µM; measurement = remaining binding; result = 0%
SMILES = COc1ccc(Nc2nn3c(-c4ccccc4)ccnc3c2C(=O)Nc2ccc(Cl)cc2)cc1; target or system = A549; assay = cell growth or viability, MTT; conditions = 12.5 µg/mL, 48 h, serum-free; measurement = viability; result = 81.2%
SMILES = N#C[Se]CCCCOc1ccc2c(-c3ccccc3)cc(=O)oc2c1; target or system = MIA PaCa-2; assay = cell growth or viability, SRB; measurement = GI50; result = 28 µM
SMILES = Cc1nn(C)cc1-c1nc2c(N3CCN(Cc4ccc(Cl)cc4)CC3)c(Cl)cnc2[nH]1; target or system = FGR; assay = binding, competition with immobilised ligand; conditions = 1 µM; measurement = remaining binding; result = 100%
SMILES = O=c1c2cc(Cl)ccc2[nH]c(=S)n1Cc1ncc[nH]1; target or system = 4'-phosphopantetheinyl transferase PptT (Mycobacterium tuberculosis, UniProt O33336); assay = enzyme activity, inhibitor, FP; measurement = IC50; result = 14300 nM
SMILES = Cc1c(Cl)c(=O)oc2cc(OCCCC[Se]C#N)ccc12; target or system = T47D; assay = cell growth or viability, SRB; measurement = GI50; result = 12 µM
SMILES = COc1cc(C(=O)c2nc(-c3ccc4[nH]ccc4c3)c[nH]2)cc(OC)c1OC; target or system = M14; assay = cell growth or viability, MTS; conditions = 72 h; measurement = IC50; result = 24.1 nM
SMILES = COc1ncccc1-c1cnn2ccc(N3CCN(C(=O)OC(C)C)CC3)nc12; target or system = FGR; assay = binding, competition with immobilised ligand; conditions = 1 µM; measurement = remaining binding; result = 100%

For quick reference, copied from above:
SMILES = N#C[Se]CCCCOc1ccc2c(-c3ccccc3)cc(=O)oc2c1; target or system = MIA PaCa-2; assay = cell growth or viability, SRB; measurement = GI50; result = 28 µM
SMILES = Nc1ncc(-c2nc(N3CCOCC3)nc(N3CCOCC3)n2)c(C(F)F)n1; target or system = PIK3CA (Homo sapiens, UniProt P42336, H1047Y); assay = binding, competition with immobilised ligand; conditions = 10 µM; measurement = remaining binding; result = 0%
